Results collected from several papers.
Every numbered part comes from another study and shows a few of its results, in no order. Values joined by “and” are separate records of one study, mostly repeats; a detail may differ.
UniProt Q8WXR4, sequence (whole entry, looked up): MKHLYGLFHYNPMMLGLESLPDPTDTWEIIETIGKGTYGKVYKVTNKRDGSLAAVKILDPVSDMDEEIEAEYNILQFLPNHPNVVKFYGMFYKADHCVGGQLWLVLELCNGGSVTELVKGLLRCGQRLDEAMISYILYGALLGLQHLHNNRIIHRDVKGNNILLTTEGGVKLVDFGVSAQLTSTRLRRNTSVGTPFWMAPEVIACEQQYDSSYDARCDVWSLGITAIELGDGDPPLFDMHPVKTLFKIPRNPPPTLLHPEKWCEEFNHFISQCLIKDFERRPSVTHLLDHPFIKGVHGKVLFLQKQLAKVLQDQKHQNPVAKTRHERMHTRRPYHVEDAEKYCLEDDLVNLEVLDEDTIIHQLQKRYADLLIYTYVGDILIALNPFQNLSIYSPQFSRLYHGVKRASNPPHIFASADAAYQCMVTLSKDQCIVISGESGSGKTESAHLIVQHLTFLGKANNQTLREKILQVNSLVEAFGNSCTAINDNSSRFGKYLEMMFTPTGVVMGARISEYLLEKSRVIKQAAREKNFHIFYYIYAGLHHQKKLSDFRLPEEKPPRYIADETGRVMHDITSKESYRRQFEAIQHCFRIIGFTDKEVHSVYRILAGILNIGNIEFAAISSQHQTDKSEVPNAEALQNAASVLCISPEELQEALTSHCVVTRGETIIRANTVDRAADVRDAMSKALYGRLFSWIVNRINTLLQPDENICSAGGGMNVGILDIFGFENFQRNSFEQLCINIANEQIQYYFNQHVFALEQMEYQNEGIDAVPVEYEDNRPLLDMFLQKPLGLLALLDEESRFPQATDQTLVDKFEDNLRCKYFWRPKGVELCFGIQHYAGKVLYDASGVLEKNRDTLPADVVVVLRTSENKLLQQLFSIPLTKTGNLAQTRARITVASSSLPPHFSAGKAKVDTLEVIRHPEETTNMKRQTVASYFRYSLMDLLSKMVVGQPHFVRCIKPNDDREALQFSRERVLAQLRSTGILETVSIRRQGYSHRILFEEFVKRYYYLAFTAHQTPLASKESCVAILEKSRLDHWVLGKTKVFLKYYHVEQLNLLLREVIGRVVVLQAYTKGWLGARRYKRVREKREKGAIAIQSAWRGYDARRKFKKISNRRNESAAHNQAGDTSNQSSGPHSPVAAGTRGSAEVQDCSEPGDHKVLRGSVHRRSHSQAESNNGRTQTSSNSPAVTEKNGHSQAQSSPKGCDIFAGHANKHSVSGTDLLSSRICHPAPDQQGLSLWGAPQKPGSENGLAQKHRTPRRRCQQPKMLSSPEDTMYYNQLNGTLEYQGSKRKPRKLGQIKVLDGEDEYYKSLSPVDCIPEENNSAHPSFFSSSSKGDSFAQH
UniProt Q96RR4, sequence (whole entry, looked up): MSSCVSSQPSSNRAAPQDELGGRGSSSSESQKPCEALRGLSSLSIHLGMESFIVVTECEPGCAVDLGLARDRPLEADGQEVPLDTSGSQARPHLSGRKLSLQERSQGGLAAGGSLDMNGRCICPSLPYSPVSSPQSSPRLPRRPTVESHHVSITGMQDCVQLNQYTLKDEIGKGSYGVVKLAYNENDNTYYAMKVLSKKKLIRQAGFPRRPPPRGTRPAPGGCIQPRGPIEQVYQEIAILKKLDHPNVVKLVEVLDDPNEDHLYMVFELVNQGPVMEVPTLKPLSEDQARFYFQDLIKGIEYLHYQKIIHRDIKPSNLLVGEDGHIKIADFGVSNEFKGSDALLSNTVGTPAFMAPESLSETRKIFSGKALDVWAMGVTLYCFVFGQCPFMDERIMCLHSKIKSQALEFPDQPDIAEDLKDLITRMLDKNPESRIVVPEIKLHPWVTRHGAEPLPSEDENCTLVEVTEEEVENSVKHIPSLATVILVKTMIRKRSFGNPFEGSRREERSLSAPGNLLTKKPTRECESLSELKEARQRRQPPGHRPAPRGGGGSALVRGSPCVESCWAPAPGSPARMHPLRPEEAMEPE
UniProt O94921, sequence (whole entry, looked up): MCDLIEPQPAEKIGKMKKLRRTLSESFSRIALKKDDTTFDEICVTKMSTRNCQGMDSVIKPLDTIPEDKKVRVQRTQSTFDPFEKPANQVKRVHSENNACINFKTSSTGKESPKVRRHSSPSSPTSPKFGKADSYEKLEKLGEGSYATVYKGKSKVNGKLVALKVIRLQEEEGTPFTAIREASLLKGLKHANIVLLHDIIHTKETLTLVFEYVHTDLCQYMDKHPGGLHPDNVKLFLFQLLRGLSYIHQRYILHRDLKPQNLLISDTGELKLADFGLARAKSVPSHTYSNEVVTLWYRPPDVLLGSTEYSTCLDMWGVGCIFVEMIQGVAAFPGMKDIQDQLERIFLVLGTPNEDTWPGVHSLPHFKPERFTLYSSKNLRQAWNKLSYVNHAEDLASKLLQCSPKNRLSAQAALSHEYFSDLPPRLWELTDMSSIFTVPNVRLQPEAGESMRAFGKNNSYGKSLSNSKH

Study 1
Compound: C[C@H](NC(=O)c1cnc2n1[C@](C)(Cc1ccc(C#N)cc1)C(=O)N2c1cc(Cl)c(F)c(Cl)c1)C(=O)NC1(c2ccccn2)CC1
Method: competition with immobilised ligand
Tested at: 1 µM
| target | assay | remaining binding [%] |
| --- | --- | --- |
| WNK4 (Homo sapiens, UniProt Q96J92) | cell-free assay | 100 |
| EIF2AK2 (Homo sapiens, UniProt P19525) | cell-free assay | 34 |
| FLT3 (Homo sapiens, UniProt P36888, D835Y) | cell-free assay | 100 |
| EPHA1 (Homo sapiens, UniProt P21709) | cell-free assay | 100 |
| BLK (Homo sapiens, UniProt P51451) | cell-free assay | 98 |
| CDK15 (Homo sapiens, UniProt Q96Q40) | cell-free assay | 100 |
| Tyrosine-protein kinase JAK3, JH1 (JAK3, Homo sapiens, UniProt P52333) | cell-free assay | 100 |
| Tyrosine-protein kinase ABL1, phosphorylated (ABL1, Homo sapiens, UniProt P00519) | cell-free assay | 100 |
| DDR2 (Homo sapiens, UniProt Q16832) | cell-free assay | 100 |
| DSTYK (Homo sapiens, UniProt Q6XUX3) | cell-free assay | 87 |
| EGFR (Homo sapiens, UniProt P00533, del747-752/P753S) | cell-free assay | 82 |
| NEK7 (Homo sapiens, UniProt Q8TDX7) | cell-free assay | 100 |
| PKN2 (Homo sapiens, UniProt Q16513) | cell-free assay | 63 |
| Myosin-IIIb (MYO3B, Homo sapiens, UniProt Q8WXR4) | binding | 100 |
| Cyclin-dependent kinase 4, with cyclin D3 (CDK4, Homo sapiens, UniProt P11802) | cell-free assay | 100 |
| CDK14 (Homo sapiens, UniProt O94921) | cell-free assay | 100 |
| CILK1 (Homo sapiens, UniProt Q9UPZ9) | cell-free assay | 100 |
| CDK11A (Homo sapiens, UniProt Q9UQ88) | binding | 100 |
| CAMKK2 (Homo sapiens, UniProt Q96RR4) | cell-free assay | 100 |
| GAK (Homo sapiens, UniProt O14976) | cell-free assay | 92 |

Study 2
Target: Bromodomain-containing protein 4, BD1 (BRD4, Homo sapiens, UniProt O60885)
Effect on: acetyl-histone H4 peptide binding
Method: AlphaScreen displacement
Tested at: 50 µM
| SMILES | inhibition |
| --- | --- |
| c1cncc(-c2[nH]c3ncccc3c2CN2CCOCC2)c1 | 10.8% |
| CC(=O)Nc1ccc(Nc2nc(-c3c(C)nc4ccccn34)cs2)cc1 | 37.4% |
| Fc1ccc(-c2[nH]c3ncccc3c2CN2CCOCC2)cc1 | 6.3% |
| COc1ccc(Nc2ncc3c(n2)CCN(C(=O)OC(C)(C)C)C3)cc1 | 29.1% |
| CCc1ccc(-c2csc3nc[nH]c(=O)c23)cc1 | 11.8% |
| CCCCn1nc(C(=O)NCCC(=O)O)c2ccccc2c1=O | -0.2% |
| CCN(CC)CCNc1nc(-c2cccc(OC)c2O)nc2ccccc12 | 51.6% |
| COc1ccc(Nc2nccc(-c3cccc(N)c3)n2)cc1 | 30.9% |
| O=C(O)Cc1csc(NC(=O)c2ccc(Br)cc2)n1 | 22.2% |
| Nc1nc(Nc2cccc(Cl)c2)sc1C(=O)c1ccc(F)cc1 | 45% |
| O=C(CSc1ccc2nnc(-c3cccc(F)c3)n2n1)N1CCCC1 | 15.3% |
| NC(=O)COc1ccc2cc(-c3nc4ccccc4s3)c(=O)oc2c1 | 6.2% |

Study 3
SMILES: Cc1ccc(NC(=O)c2ccnc(C(F)(F)F)c2)cc1-c1cc(OCCO)nc(N2CCOCC2)c1
Tested at: 1 µM
| target | assay | setting | how to read | remaining binding |
| --- | --- | --- | --- | --- |
| MAPK8 (Homo sapiens, UniProt P45983) | competitive binding | JNK1 | – | 80% |
| FES (Homo sapiens, UniProt P07332) | competitive binding panel | – | reference: vehicle | 89% |
| Myosin-IIIb (MYO3B, Homo sapiens, UniProt Q8WXR4) | competitive binding panel | – | reference: vehicle | 100% |
| MAPK12 (Homo sapiens, UniProt P53778) | competitive binding, scanMAX | p38-gamma, 1000 nM | – | 96% |
| CAMKK2 (Homo sapiens, UniProt Q96RR4) | competitive binding panel | – | reference: vehicle | 98% |
| EPHB6 (Homo sapiens, UniProt O15197) | competitive binding panel | – | reference: vehicle | 95% |
| MAP2K2 (Homo sapiens, UniProt P36507) | competitive binding panel, measured: MEK2 | – | reference: vehicle | 89% |
| CSNK1E (Homo sapiens, UniProt P49674) | competitive binding panel | – | reference: vehicle | 100% |
| PRKD3 (Homo sapiens, UniProt O94806) | competitive binding panel | – | reference: vehicle | 100% |

Study 4
Target: DNA polymerase theta, ATPase domain (POLQ, Homo sapiens, UniProt O75417)
UniProt O75417, sequence (whole entry, unmodified, looked up): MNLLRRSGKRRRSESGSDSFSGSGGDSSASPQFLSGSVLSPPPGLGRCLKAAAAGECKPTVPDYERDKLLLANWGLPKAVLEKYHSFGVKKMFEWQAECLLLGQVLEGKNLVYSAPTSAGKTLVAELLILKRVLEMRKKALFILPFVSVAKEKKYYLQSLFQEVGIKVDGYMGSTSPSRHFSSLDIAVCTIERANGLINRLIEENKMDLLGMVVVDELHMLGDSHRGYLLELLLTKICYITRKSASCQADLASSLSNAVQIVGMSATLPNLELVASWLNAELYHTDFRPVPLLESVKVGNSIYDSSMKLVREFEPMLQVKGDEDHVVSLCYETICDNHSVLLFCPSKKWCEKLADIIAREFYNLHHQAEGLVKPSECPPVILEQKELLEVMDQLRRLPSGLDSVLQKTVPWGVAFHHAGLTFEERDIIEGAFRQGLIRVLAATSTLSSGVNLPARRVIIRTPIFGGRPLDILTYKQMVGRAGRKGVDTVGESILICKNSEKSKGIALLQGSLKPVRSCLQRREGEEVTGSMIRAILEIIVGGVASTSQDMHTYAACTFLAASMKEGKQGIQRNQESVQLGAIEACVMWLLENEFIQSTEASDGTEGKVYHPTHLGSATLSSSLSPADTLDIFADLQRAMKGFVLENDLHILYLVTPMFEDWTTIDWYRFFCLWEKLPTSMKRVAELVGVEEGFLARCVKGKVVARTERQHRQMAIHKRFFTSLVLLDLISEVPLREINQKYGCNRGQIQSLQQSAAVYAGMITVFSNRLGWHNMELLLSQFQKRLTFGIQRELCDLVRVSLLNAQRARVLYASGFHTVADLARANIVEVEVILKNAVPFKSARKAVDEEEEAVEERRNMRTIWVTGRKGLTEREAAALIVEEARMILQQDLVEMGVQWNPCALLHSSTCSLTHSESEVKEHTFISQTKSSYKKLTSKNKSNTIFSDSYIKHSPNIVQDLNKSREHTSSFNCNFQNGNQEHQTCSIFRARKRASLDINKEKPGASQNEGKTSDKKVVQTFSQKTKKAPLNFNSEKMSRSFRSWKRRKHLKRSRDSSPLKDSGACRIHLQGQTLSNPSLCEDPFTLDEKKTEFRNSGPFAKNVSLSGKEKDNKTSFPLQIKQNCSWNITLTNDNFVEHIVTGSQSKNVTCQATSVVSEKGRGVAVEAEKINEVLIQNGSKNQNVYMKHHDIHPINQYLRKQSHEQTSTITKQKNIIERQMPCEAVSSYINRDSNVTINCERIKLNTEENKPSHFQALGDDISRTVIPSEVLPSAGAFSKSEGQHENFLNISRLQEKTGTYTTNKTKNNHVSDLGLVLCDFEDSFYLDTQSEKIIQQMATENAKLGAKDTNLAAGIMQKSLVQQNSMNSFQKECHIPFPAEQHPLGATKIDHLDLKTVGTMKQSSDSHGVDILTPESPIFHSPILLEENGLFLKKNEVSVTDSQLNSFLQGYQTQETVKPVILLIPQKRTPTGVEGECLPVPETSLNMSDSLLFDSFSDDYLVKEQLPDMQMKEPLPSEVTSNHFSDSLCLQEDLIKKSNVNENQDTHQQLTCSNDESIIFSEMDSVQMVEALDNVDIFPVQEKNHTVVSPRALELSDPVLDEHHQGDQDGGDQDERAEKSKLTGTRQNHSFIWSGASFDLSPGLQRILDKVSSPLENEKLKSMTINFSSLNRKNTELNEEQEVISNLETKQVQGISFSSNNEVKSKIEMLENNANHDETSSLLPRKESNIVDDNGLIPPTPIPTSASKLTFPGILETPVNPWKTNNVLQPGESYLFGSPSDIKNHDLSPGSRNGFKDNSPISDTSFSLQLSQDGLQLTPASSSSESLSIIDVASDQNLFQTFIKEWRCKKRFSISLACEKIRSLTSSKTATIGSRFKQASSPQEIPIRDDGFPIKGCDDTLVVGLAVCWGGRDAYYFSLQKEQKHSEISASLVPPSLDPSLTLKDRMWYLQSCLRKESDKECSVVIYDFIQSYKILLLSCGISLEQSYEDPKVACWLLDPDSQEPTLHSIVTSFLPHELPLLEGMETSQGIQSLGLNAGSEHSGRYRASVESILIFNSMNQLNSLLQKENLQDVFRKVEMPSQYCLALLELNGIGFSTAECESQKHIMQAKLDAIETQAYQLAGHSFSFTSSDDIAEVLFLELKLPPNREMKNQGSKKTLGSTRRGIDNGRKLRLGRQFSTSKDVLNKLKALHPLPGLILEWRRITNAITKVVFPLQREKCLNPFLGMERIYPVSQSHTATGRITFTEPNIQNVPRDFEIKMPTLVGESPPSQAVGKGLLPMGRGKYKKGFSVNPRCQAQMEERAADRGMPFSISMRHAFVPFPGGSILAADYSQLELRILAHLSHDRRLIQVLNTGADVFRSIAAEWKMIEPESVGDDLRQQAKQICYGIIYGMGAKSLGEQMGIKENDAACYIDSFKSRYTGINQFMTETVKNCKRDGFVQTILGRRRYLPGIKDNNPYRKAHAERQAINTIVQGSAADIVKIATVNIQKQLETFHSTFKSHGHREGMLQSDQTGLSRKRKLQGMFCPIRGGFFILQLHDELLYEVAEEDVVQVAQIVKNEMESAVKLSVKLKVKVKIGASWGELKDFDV
Effect on: enzyme activity
Action: inhibitor
Tested at: 77 µM
Reference: untreated
| Compound | remaining activity |
| --- | --- |
| COc1ccc(C[C@H](NC(=O)[C@H](C)NC(=O)CN2CCOCC2)C(=O)N[C@@H](Cc2ccccc2)C(=O)[C@@]2(C)CO2)cc1 | 102% |
| COC1(C2=NCCN2)COc2ccccc2O1 (stereo not drawn) | 106% |
| Cc1cc2c(C(=O)NC[C@H](C)c3ccccc3)c(O)c(O)cc2c(O)c1-c1c(C)cc2c(C(=O)NC[C@H](C)c3ccccc3)c(O)c(O)cc2c1O | 93% |
| OC[C@@H](O)CN1CCN(c2ccccc2)CC1 | 92% |
| CC(=O)OCC(=O)[C@@]1(O)[C@H](C)C[C@H]2[C@@H]3CCC4=CC(=O)C=C[C@]4(C)[C@@]3(F)[C@@H](O)C[C@@]21C | 99.5% |
| COc1cc2ncnc(Nc3ccc(OCc4ccccc4)cc3)c2cc1OC | 104% |
| CC1=C(/C=C/C(C)=C/C=C/C(C)=C/C=C/C=C(C)/C=C/C=C(C)/C=C/C2=C(C)C(=O)[C@@H](O)CC2(C)C)C(C)(C)C[C@H](O)C1=O | 86.9% |
| CN(C)CCn1nnnc1SCC1=C(C(=O)O)N2C(=O)[C@@H](NC(=O)Cc3csc(N)n3)[C@H]2SC1 | 98.7% |
| Nc1nc(=O)n([C@@H]2CS[C@H](CO)O2)cc1F | 99.9% |
| O=C(/C=C/c1ccc(O)c(O)c1)O[C@@H]1C[C@](O)(C(=O)O)C[C@@H](O)[C@H]1O | 103% and 95.1% |
